Measurements gathered from unrelated publications.
Each numbered part is a random draw from the data of one study; scales do not carry over between parts.

Block 1 — method: protein-binding microarray; molecule type: double-stranded DNA, one strand shown; sample: in vitro; tested at: 2200 nM top; setting: 60-bp whole probe; with: salmon DNA 0.4 mg/ml; baseline: random background probes; direction: higher = stronger binding; quantity: fitted relative affinity
Target: Interferon regulatory factor 7, full length, phosphomimetic (IRF7, Homo sapiens, UniProt Q92985, residues 1-503, S471D/S472D/S475D/S476D/S477D/S483D/S484D/S487D)
Sequence of UniProt Q92985 (whole entry, unmodified, looked up): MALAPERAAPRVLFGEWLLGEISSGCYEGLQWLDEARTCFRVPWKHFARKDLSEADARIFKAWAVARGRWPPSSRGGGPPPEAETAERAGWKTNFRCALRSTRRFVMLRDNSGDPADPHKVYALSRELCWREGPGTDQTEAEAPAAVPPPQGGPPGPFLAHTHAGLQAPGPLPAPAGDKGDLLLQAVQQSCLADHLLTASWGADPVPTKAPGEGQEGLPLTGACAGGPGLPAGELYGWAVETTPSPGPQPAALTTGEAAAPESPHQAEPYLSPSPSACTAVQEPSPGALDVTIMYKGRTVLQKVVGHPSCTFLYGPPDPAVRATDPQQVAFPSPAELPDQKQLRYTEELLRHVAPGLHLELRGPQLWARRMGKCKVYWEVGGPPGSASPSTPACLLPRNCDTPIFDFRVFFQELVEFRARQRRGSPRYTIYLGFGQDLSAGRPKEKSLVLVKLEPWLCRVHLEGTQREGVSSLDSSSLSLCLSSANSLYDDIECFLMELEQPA
GCCTAGCACGACGTTATCGACACTGGGGACGTGCTAGTCTTGATTCGCTTGACGCTGCTG: 0.151 z-score
GCCTAGCACTCATGTTTGGTTCTGATACTGTGCTAGGTCTTGATTCGCTTGACGCTGCTG: 1.84 z-score
GCCTAGCACGACGATATCAGTTTCGCGACGTGCTAGGTCTTGATTCGCTTGACGCTGCTG: 1.99 z-score
GCCTAGCACTCAGGTCTCGGACTGGGTTAGTGCTAGGTCTTGATTCGCTTGACGCTGCTG: -0.0165 z-score

Block 2 — method: protein-binding microarray; molecule type: double-stranded DNA, one strand shown; sample: in vitro; tested at: 0.8 µM; setting: whole 60-bp probe, no competitor; direction: higher = stronger binding; quantity: fluorescence intensity; shared flanks, not repeated: … GTCTTGATTCGCTTGACGCTGCTG
Target: Centromere-binding protein 1, full length, N-terminal tag (CBF1, Saccharomyces cerevisiae, UniProt P17106, residues 1-351)
Sequence of UniProt P17106 (whole entry, looked up): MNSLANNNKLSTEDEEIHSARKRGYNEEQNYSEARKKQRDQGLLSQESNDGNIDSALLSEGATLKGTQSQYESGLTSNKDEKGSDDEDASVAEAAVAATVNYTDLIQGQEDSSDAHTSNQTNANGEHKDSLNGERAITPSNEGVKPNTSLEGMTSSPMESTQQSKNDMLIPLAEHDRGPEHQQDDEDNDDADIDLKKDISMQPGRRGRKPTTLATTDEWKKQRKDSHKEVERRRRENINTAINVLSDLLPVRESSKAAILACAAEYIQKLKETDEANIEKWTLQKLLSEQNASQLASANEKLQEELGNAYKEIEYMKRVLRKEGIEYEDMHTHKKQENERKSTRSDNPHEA
GAAATTCATGTGTGTCACGAAAAGTGATGTAACTAG: 612 a.u.
CTAGATTTGTTGCAAGAGGTGACATTCAGCATCTTC: 559 a.u.
GAATATCTATACCGTGACAACTCCAAAAAATCCTAG: 1010 a.u.
GAAGGTTTTGCGCTAATCGTGCGCCTGATTTTTTAG: 562 a.u.
CTATTGGTCATATTAATCATGACCAATATAATATTC: 553 a.u.
GAATGTCATAGTTGGCACGGGACAGAATACGTTTAG: 1160 a.u.

Block 3 — method: protein binding microarray; molecule type: double-stranded DNA, one strand shown; sample: in vitro; tested at: not given; baseline: not given; direction: higher = stronger binding; quantity: E-score
Target: Histone acetyltransferase KAT6A, both winged helices, GST fusion (KAT6A, Homo sapiens, UniProt Q92794, residues 1-181)
Setting: 8-mer, flanks averaged, mean of 2 arrays, mostly near background
Construct (chain): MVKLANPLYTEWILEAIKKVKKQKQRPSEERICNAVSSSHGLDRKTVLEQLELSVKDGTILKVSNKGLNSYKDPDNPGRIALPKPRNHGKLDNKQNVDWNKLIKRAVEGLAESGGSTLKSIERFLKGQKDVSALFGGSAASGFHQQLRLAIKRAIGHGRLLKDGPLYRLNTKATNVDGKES
ATACGCCA: 0.0464
CGTAGGCA: -0.0546
ACATATAA: -0.105
GGGTGTAC: 0.109
ACACAGCA: 0.00535

Single results of other studies
PhoQ, residues 284 288 289 292 302 303 SLANKL — fold induction (PhoP, residues 12 14 15 18 19 TQCLL (Escherichia coli, UniProt P23836); Sort-seq, refers to: YFP reporter; E. coli; PhoQ-PhoP variant library, with: 10 µM Mg2+; baseline: high Mg2+ state, higher = stronger signaling): 19.9
